Assay results from different studies.
Each numbered part is a random draw from the data of one study; scales do not carry over between parts.
UniProt P48729, sequence (whole entry, looked up): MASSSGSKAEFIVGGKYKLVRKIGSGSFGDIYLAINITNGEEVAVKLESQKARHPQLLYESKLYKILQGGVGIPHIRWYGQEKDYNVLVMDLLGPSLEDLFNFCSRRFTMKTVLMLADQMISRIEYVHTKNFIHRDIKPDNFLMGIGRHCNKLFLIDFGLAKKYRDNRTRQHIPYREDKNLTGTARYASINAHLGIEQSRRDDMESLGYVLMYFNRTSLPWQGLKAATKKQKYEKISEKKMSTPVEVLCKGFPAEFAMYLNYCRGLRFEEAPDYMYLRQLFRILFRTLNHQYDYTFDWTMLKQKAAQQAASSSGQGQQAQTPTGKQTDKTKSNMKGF

Block 1 — technique: RNA Bind-n-Seq; form: RNA; sample: in vitro; concentration: 100 nM; reference: input RNA pool; direction: higher = stronger binding; endpoint: bound/input enrichment
Target: RING finger protein unkempt homolog, zinc fingers 1-6, SBP tag (UNK, Homo sapiens, UniProt Q9C0B0, residues 30-357)
UniProt Q9C0B0, sequence (30-357, looked up): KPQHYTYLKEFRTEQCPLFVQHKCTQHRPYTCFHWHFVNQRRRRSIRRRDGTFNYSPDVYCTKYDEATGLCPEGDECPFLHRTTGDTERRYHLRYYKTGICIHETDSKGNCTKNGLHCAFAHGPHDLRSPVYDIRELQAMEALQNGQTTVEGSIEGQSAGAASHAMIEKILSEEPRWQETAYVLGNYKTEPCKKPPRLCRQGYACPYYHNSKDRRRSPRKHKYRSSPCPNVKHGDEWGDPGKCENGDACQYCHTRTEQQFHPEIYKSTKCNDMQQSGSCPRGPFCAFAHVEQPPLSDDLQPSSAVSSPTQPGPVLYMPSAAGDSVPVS
Setting: RNA with constant flanks, vertebrate orthologous sites, ends assumed
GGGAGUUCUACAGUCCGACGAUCCAGUGCCAUGGUGGAUGGCUCUGAGCUCAAAAAAGUGCGAUCCAAUUCGCGCAUUUACCAUCGCUACUUUCUCCUUGAUGCCGACAUGCAGUCUUUGAGAUGGGAGCCUUCAAAGAAGGACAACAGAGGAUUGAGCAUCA: 0.215 ratio
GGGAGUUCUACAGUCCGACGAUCUUAAACUGGUAUUUUCGGACCACAUGAAGCUUUUCUCUUUUUUUUUUUUUUUUUUUACAGUUUAGUAUCUGGUUUCUACAUGGAAGACUGAAACUUUCAUGCUUAUUGUUAAAUGUGUUUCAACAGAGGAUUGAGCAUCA: 0.324 ratio
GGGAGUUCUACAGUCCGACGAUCAAAUAUACUUCAUGCCAUGGACUCCAUAUCGCACCGAUACUUUGAUAGAAUAUGCUUCUUUAGAGGACUUCCAAAACGGACGCCAGCAGACAACAUAUAAACUCCCAAAUCGAGUGGAUGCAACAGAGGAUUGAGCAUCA: 1.03 ratio
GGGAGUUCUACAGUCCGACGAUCUAGUUUUGUACAGGGCCUUCUCUGUACUAGUUUGUUGUGGUUAUAAAACAAUUAGCAAACCGGCUUACAUUUGUAUUUAUUUUCUAUUCCUUAUUUUCCCUGCCUUAUGUUUUUUCUUUCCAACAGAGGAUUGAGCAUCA: 1.77 ratio
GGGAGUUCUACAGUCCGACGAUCAAAUCAGUAGAAUUACAUAAUACUAAAGUUGCAGUGAAAGGAUUUCCAAGUAUGUGUUGGUAGUUACUAAAAGAAUUAUAGCUGUUAUUGCCUUGUAUUUAUAGCCCUUGUUUCAGGUUUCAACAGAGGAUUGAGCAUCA: 1.04 ratio
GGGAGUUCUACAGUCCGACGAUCAUGUUUCCACUGGGUUUUGUCUGUUAAGAAAAAAGAAAGAAAAACGCGAACCCGACCACAUAGAGCUUUUUAAUAGCACUAACCAAUGCCUUUUUAGAUGUAUUUUUGAUGUACAUAUCUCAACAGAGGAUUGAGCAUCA: 1.92 ratio
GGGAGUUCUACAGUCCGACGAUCCAGUUUAGAUAAUCUUUUUAUUUUUUUUCUUUUCCCUCAAUCCUUUUUUAUUUUUAAAACUAGUUCUUUUGUAAUGUGGUGUUCAAAACAGAAUUGAAAACUGGCACCCCAUCUCUUUGACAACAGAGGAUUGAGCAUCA: 7.44 ratio
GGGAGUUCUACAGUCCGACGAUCCGUGCUUAUGCUCUUCUAUGAGAGAGAUGAAUUGGGGAGAACUGUCUCCGUUUUAUAGAUUAGUUUCUUUCUAAAUUGUGACCAAAAAUAUUUUGCUAUUUCUUUCUUUGUAUAUGGACACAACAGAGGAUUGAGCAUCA: 0.601 ratio

Block 2 — technique: RNA Bind-n-Seq; form: RNA; sample: in vitro; concentration: 365 nM; reference: no-protein control; direction: higher = stronger binding; endpoint: RBNS enrichment (R)
Target: RNA binding protein fox-1 homolog 2, RRM domain, GST-SBP tag (RBFOX2, Homo sapiens, UniProt O43251-10, residues 100-194)
Setting: natural RNA segment, single round, ends assumed
Target sequence (chain): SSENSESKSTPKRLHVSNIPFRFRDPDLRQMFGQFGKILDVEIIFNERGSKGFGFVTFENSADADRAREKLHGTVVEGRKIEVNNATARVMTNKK
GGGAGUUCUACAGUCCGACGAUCAGACUCAUCCCCGUGGGCUAGGACAGGAGGCCACUAGUACUGAUGCCAAACCAGGCCUCCACCGACCCACCUGCCUGGAGAUUUCCUCUAUGUAGGCAACCCUGCCACUGUGGAAUUCUCGGGUGCCAA: 0.565
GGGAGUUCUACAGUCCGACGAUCCUACUCUGCCACAGACUCGAGUAAGAAAAUGUUCUCUUGAUGACACAGUGCUCCUACUCUAUCCACAUUAAGUAGCACUUUUGUGGUAGAACUGAUUCUUAAGGCAGGCCUGGAAUUCUCGGGUGCCAA: 0.487
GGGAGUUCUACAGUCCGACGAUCGCAUUUUUGUUUAGACUCCCUGAGGUUCCGUUUUACACAUGAUCCAACGUUAACUACCUUUUUUUCUGUAUGCUUUCCAAAGUCCUUUUUUUUCCCUUAAUGUUGAAUUAUGGAAUUCUCGGGUGCCAA: 51.6
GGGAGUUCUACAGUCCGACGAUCGGCCCCCUUUGCCACGUCCCCUUAGCUUAGUGAUCAGGUGUGAGAGUGGCCAUUUCCUUACCUUUGAUCCCUGUAAAGCAGAAAGGACUCCUUUGACAGGCGACAAACUAUGGAAUUCUCGGGUGCCAA: 0.438
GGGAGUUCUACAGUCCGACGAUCUUGAACUCGAAGACAACUUAAAGUUUAGGGAAAGGAGAAUAUUUUUGGCAGAACAUCCGUCAGUACCUCAUGAAGGCUGGCUGCCUUUGUCUUUGAGAUAGACAUUGGAGUGGAAUUCUCGGGUGCCAA: 0.432
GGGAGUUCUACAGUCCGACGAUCCCCCAUCCCUGGGGCAACAUUCCCUGGAGCUGUGCCAACAGGAGGACUGAAGCAGCCUGGUUUUAGAGUGUAGCUGUAAGGGCAGUGCCCGUGUGUACAGUCUGUGGAGUUGGAAUUCUCGGGUGCCAA: 0.564
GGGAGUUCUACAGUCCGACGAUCUUGUAUAUUUGUAUUUUAUGACCAAGUAGACCAAGUCAGAAAGAUCUCUCUCGAGCGUACCAUAAACCUGCAGAGAGAAGUCUCGAAAGGCUCCACCAGGUACCAAGGGCUGGAAUUCUCGGGUGCCAA: 0.238
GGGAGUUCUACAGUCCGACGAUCACUGCCCACAUCAUACCUUUUCUUAAUGAAGCCCUGGCACUUUAUAGCAGAGUUCAUGAAACCACAGCUCUUCCAAGCCAUGUACAUAGUUCAUGCUCAGCCCUGAACUCUGGAAUUCUCGGGUGCCAA: 0.502

Mixed results
N#CC(c1ccnc(NCCc2cccnc2)n1)c1nc2ccccc2s1 (stereo not drawn)  remaining activity (Casein kinase I isoform alpha (CSNK1A1, Homo sapiens, UniProt P48729); enzyme activity, inhibitor; 0.5 µM; reference: control): 80%
PhoQ, residues 284 288 289 292 302 303 ALVSVA  fold induction (PhoP, residues 12 14 15 18 19 AQCLL (Escherichia coli, UniProt P23836); Sort-seq, refers to: YFP reporter; E. coli; PhoQ-PhoP variant library, with: 10 µM Mg2+; reference: high Mg2+ state, higher = stronger signaling): 3.88

Excerpt of the above (block 1):
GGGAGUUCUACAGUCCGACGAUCCAGUUUAGAUAAUCUUUUUAUUUUUUUUCUUUUCCCUCAAUCCUUUUUUAUUUUUAAAACUAGUUCUUUUGUAAUGUGGUGUUCAAAACAGAAUUGAAAACUGGCACCCCAUCUCUUUGACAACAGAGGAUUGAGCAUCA: 7.44 ratio
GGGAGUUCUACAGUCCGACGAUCCGUGCUUAUGCUCUUCUAUGAGAGAGAUGAAUUGGGGAGAACUGUCUCCGUUUUAUAGAUUAGUUUCUUUCUAAAUUGUGACCAAAAAUAUUUUGCUAUUUCUUUCUUUGUAUAUGGACACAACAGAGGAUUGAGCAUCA: 0.601 ratio
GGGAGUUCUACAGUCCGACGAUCAAAUAUACUUCAUGCCAUGGACUCCAUAUCGCACCGAUACUUUGAUAGAAUAUGCUUCUUUAGAGGACUUCCAAAACGGACGCCAGCAGACAACAUAUAAACUCCCAAAUCGAGUGGAUGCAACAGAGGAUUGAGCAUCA: 1.03 ratio
